Measurements from different studies.
Each line is one published result; not all experiments were run side by side. ± marks the error that the study gave.

SMILES	test	test system	conditions	scale	measurement	value
CC1(C)C(/C=C/C=C/C=C/C=C2\N(CCCCS(=O)(=O)O)c3ccc4ccccc4c3C2(C)C)=[N+](CCCCS(=O)(=O)[O-])c2ccc3ccccc3c21	NIR fluorescence imaging	C57BL/6 mouse, inguinal lymph node	intradermal, 20 µL, 500 µM	–	time to maximal fluorescence	15 min
O=C(O)[C@H](c1ccccc1Cl)N1CCc2sccc2C1	HPLC-MS/MS	feline EDTA plasma	12 h, -80 °C, storage stability	–	deviation from nominal	-4%
CC1(C)S[C@@H]2[C@H](NC(=O)[C@H](N)c3ccc(O)cc3)C(=O)N2[C@H]1C(=O)O	–	male ICR mouse, kidney	oral, 3 mg/kg, 24 h	–	AUC	23100 ng·h/mL
CCCOc1ccc([C@H]2CNC(=O)N2c2ccc3[nH]cnc3c2)cc1	–	human, plasma	oral, 1200 mg, single dose, fed, healthy volunteers	–	AUC(0-t)	17900 ng·h/mL
C=CC(=C)CC[C@]1(C)[C@H](C)C[C@H](OC(=O)CCCCC)[C@@]23C(=C[C@H](O)C[C@@H]12)[C@@H](OC(C)=O)O[C@H]3OC(C)=O	haemolysis	–	500 µM	–	haemolysis	34.3%
CCN(CC)CCNC(=O)c1c(C)[nH]c(/C=C2\C(=O)Nc3ccc(F)cc32)c1C	–	human	37.5 mg daily, 4 wk on 2 wk off, 11 months	–	LVEF	20 to 25%
Cc1nc2cccc(OCC(C)(C)C(=O)NC(C)C)c2c(N)c1C(=O)O	–	female Sprague-Dawley rat, plasma	oral food admix, 30 mg/kg/day, day 7, 90-day dietary study	–	AUC(0-24 h)	105 ng·h/mL
CO[C@H]1C[C@@H]2CC[C@@H](C)[C@@](O)(O2)C(=O)C(=O)N2CCCC[C@H]2C(=O)O[C@H]([C@H](C)C[C@@H]2CC[C@@H](O)[C@H](OC)C2)CC(=O)[C@H](C)/C=C(\C)[C@@H](O)[C@@H](OC)C(=O)[C@H](C)C[C@H](C)/C=C/C=C/C=C/1C	–	NOD/SCID mice, male, blood or plasma	intraperitoneal, 0.5 mg/kg every 48 h, 48 h	–	Cmin	14.9 ± 2 ng/mL
CN(CCOc1ccc(CC2SC(=O)NC2=O)cc1)c1ccccn1 (stereo not drawn)	–	Sprague-Dawley rat, female, plasma	intraperitoneal, 5 mg/kg of dasatinib, with: dasatinib co-dosed	–	MRT(0-inf)	3.14 ± 0.77 h
CN[C@@H]1[C@H](O)[C@H](NC)[C@H]2O[C@]3(O)[C@H](O[C@@H]2[C@H]1O)O[C@H](C)C[C@H]3NC(=O)Cc1cc(Cl)c(OC)cn1	glutathione conjugation	human liver S9	100 µM, 2 h, pH 7.4, with: glutathione 0.2 mM	–	parent remaining	98.8%
O=C(/C=C/c1ccc(O)c(O)c1/C=C/c1ccc(O)c(O)c1)O[C@H](Cc1ccc(O)c(O)c1)C(=O)O	UPLC-MS/MS	Wistar rat, microcirculation dysfunction model, plasma	oral, 100 mg/kg Salvia miltiorrhiza stem-leaf extract FT	–	MRT(0-inf)	16.4 ± 18.9 h
C[C@H](Oc1ccc(-c2nc(-c3ccc4[nH]cnc4c3)no2)cc1C(F)(F)F)C(F)(F)F	–	cynomolgus monkey, aneurysm model, plasma	0.1 mg/kg once daily, 1 h post-dose, 12 months dosing	–	plasma concentration	9.4 ± 0.9 nM
Cc1ccc(C(=O)c2cc(O)c(O)c([N+](=O)[O-])c2)cc1	–	rat, Sprague Dawley, male	intraperitoneal, 15 mg/kg, 4 h	–	free plasma concentration	35 nM
CS(=O)(=O)Nc1ccc(C(=O)O[C@@H](Cc2c(Cl)c[n+]([O-])cc2Cl)c2ccc(OC(F)F)c(OCC3CC3)c2)cc1OCC1CC1	–	human, plasma	inhalation, 1200 µg twice daily, day 1, median	–	tmax	3 h
Cc1c2c(n(-c3ccc(F)cc3Cl)c1-c1ccc(OS(=O)(=O)CCC(F)(F)F)cc1)CCN(N1CCCCC1)C2=O	LC-MS/MS	cynomolgus monkey 4, plasma	intravenous infusion, 0.02 mg/kg, 90 min, total concentration mid-point of PET	–	plasma concentration	1 nM
CNc1nc(Nc2ccc(-n3cnc(C)n3)c(OC)c2)nc2c1CC[C@H]2c1ccc(F)cc1	–	human, plasma	oral, 10 mg, single dose, healthy volunteers	–	AUC(0-t)	128 ng·h/mL
O=C(Nc1c(Cl)cncc1Cl)c1ccc(OC(F)F)c(OCC2CC2)c1	–	human, age 18 years or older, plasma	topical, 0.3 % cream, week 4, mean	–	trough plasma concentration	1.99 ng/mL
CO/N=C1\C[C@]2(C[C@@H]3C[C@@H](C/C=C(\C)C[C@@H](C)/C=C/C=C4\CO[C@@H]5[C@H](O)C(C)=C[C@@H](C(=O)O3)[C@]45O)O2)O[C@H](/C(C)=C/C(C)C)[C@H]1C	HPLC, non-compartmental	Corriedale lambs, parasitized, plasma	oral, 0.2 mg/kg, with: closantel 10 mg/kg oral	–	elimination half-life	62.4 h

SMILES	test	test system	conditions	scale	measurement	value
CC[C@H](C)C(=O)O[C@H]1C[C@H](O)C=C2C=C[C@H](C)[C@H](CC[C@@H](O)C[C@@H](O)CC(=O)O)[C@H]21	–	perfused human placental lobule	50 ng/mL, 4 h, fetal-to-maternal	baseline: initial donor concentration	transfer to maternal circuit	13 ± 2%
CCS(=O)(=O)Nc1ccc(Oc2ccc(F)cc2F)c(-c2cn(C)c(=O)c3[nH]ccc23)c1	–	Sprague-Dawley rat, plasma	oral vs intravenous, 3 mg/kg oral, 1 mg/kg i.v.	–	oral bioavailability	57%
NCCCC[C@@H]1NC(=O)[C@@H](Cc2c[nH]c3ccccc23)NC(=O)[C@H](c2ccccc2)NC(=O)[C@@H]2C[C@@H](OC(=O)NCCN)CN2C(=O)[C@H](Cc2ccccc2)NC(=O)[C@H](Cc2ccc(OCc3ccccc3)cc2)NC1=O	–	human, serum	subcutaneous, 2.5 µg, 48 h	–	lipase level	547 U/L
CCN1C(=O)CNc2ncc(-c3ccc(-c4nc[nH]n4)nc3C)nc21	–	human, plasma	oral, 8 mg once daily, multiple doses	–	AUC(0-12h)	221 ng·h/mL
C[N+]1(CC(=O)OC2CCCCCCC2)CCCCC1.[I-]	–	phosphate buffer with 2% DMSO	90 min, pH 7.4, theoretical maximum 200 µM	–	aqueous solubility	182 µM
Oc1ccc(C(c2ccc(O)cc2)(C(F)(F)F)C(F)(F)F)cc1	refers to: free compound	Hsd:Sprague Dawley rat female, plasma	oral gavage, 110 mg/kg single dose	–	elimination (k10) half-life	1.68 h
COc1cc(Nc2ncc3c(n2)-c2ccc(Cl)cc2C(c2c(F)cccc2OC)=NC3)ccc1C(=O)O	–	children, plasma	oral, 80 mg/m2 once daily, day 4 of cycle 1, median	–	trough concentration	1300 nM
Oc1ccc2c3c(cnc2c1)-c1ccc(C(F)(F)F)cc1O[C@@H]3c1ccc(OCCN2CC(CF)C2)cc1	refers to: total radioactivity	healthy women, fasted, plasma	oral, 400 mg [14C]-labelled, single dose, mean	–	t1/2	114 h
CC(C)C[C@H](NC(=O)CNC(=O)c1cc(Cl)ccc1Cl)B(O)O	rapid equilibrium dialysis	severe hepatic impairment patients, plasma	3 h	–	unbound fraction	0.0098 ± 0.0046
CCN(CC)CCNC(=O)c1c(C)[nH]c(/C=C2\C(=O)Nc3ccc(F)cc32)c1C	–	human, plasma	oral, 50 mg daily, with: everolimus 30 mg weekly	–	Cmin	77 ng/mL
Clc1ccccc1C(c1ccccc1)(c1ccccc1)n1ccnc1	equilibrium dialysis	CYP2C8 preparation, phosphate buffer	1 µM, 12 h, pH 7.4	–	unbound fraction	0.048 ± 0.002
CC(=O)c1nn(CC(=O)N2C[C@H](F)C[C@H]2C(=O)Nc2cccc(Br)n2)c2ccc(-c3cnc(C)nc3)cc12	–	Dutch Belted rabbits, choroid/RPE and retina	oral, 7.5 to 50 mg/kg twice daily, 15 days	–	sustained exposure duration	240 h
NC(=O)c1ccc2c(c1)C(=O)CCc1ccccc1C(=O)N2	nephelometry	aqueous buffer	30 min, pH 6.5	–	kinetic solubility	> 100 µg/mL
S=C(NCCCc1c[nH]cn1)NCCCN(Cc1ccc(Cl)c(Cl)c1)c1ccc(Br)cn1	–	male C57BL/6 mice, plasma	intraperitoneal, 30 mg/kg, 0.25 h	–	plasma concentration	2420 ng/mL
CCCCCCCCCCCCCCCCCCOP(=O)([O-])OC1CC[N+](C)(C)CC1	–	rhesus monkey, male, cerebrospinal fluid	oral, 7 mg/kg, single dose, mean of 3	–	terminal half-life	258 h
CCOc1c([C@H](C)n2nc(C)c3c(N)ncnc32)cc(Cl)c(F)c1[C@@H]1CNC(=O)C1	–	Japanese patients, plasma	oral, 20 mg once daily, cycle 1 day 15	–	t1/2	10.4 ± 3.3 h
C[C@@H](c1ncncc1F)[C@](O)(Cn1cncn1)c1ccc(F)cc1F	–	Chinese patients, plasma	200 mg, 12 h, multivariate regression	baseline: PM PPI users over NM non-users	trough concentration fold	~5 fold
CCCC[C@H](NC(C)=O)C(=O)N[C@H]1CCC(=O)NC[C@@H](C(=O)N[C@@H](Cc2c[nH]c3ccccc23)C(N)=O)NC(=O)[C@H](CCCNC(=N)N)NC(=O)[C@@H](Cc2ccccc2)NC(=O)[C@H](Cc2c[nH]cn2)NC1=O	–	CD Sprague Dawley rat, male, plasma	subcutaneous, 1.0 mg/kg daily, day 1	–	Vd/F	1.15 L/kg

Repeated from above:
SMILES	test	test system	conditions	scale	measurement	value
NC(=O)c1ccc2c(c1)C(=O)CCc1ccccc1C(=O)N2	nephelometry	aqueous buffer	30 min, pH 6.5	–	kinetic solubility	> 100 µg/mL
S=C(NCCCc1c[nH]cn1)NCCCN(Cc1ccc(Cl)c(Cl)c1)c1ccc(Br)cn1	–	male C57BL/6 mice, plasma	intraperitoneal, 30 mg/kg, 0.25 h	–	plasma concentration	2420 ng/mL
CCCCCCCCCCCCCCCCCCOP(=O)([O-])OC1CC[N+](C)(C)CC1	–	rhesus monkey, male, cerebrospinal fluid	oral, 7 mg/kg, single dose, mean of 3	–	terminal half-life	258 h
CCOc1c([C@H](C)n2nc(C)c3c(N)ncnc32)cc(Cl)c(F)c1[C@@H]1CNC(=O)C1	–	Japanese patients, plasma	oral, 20 mg once daily, cycle 1 day 15	–	t1/2	10.4 ± 3.3 h
